Experimental data of several laboratories.
± gives the spread as reported.
USP33 ZnF-UBD domain: Ubiquitin carboxyl-terminal hydrolase 33, ZnF-UBD domain (USP33, Homo sapiens, UniProt Q8TEY7)
UniProt Q8TEY7, sequence (whole entry, looked up): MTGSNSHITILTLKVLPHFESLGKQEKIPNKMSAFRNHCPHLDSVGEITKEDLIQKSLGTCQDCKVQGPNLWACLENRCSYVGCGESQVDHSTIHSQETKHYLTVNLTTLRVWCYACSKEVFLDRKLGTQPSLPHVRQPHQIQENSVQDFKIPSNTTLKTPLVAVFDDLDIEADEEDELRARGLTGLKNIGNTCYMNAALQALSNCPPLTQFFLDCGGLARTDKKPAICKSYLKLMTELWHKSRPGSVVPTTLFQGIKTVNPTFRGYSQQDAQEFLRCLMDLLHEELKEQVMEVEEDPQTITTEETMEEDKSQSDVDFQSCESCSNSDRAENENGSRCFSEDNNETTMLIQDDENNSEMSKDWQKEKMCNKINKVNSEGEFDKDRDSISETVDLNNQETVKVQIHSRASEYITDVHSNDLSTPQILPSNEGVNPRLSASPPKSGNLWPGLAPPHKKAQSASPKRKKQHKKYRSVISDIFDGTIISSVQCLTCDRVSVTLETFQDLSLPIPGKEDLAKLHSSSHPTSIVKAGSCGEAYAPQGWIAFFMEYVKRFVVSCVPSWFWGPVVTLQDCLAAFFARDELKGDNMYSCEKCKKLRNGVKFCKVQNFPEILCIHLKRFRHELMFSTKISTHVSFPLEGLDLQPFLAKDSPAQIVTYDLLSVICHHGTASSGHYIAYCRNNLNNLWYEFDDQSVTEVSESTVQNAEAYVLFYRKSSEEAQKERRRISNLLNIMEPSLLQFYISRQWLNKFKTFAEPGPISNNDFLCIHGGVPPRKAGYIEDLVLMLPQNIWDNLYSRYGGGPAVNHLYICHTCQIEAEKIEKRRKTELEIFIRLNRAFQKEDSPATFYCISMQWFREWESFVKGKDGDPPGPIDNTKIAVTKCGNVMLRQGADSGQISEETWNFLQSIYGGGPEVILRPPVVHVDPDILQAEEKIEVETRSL
IDE: Insulin-degrading enzyme (IDE, Homo sapiens, UniProt P14735)
Cereblon/Ikaros: Cereblon/Ikaros (Homo sapiens, UniProt Q13422+Q96SW2)
UniProt Q96SW2, sequence (whole entry, looked up): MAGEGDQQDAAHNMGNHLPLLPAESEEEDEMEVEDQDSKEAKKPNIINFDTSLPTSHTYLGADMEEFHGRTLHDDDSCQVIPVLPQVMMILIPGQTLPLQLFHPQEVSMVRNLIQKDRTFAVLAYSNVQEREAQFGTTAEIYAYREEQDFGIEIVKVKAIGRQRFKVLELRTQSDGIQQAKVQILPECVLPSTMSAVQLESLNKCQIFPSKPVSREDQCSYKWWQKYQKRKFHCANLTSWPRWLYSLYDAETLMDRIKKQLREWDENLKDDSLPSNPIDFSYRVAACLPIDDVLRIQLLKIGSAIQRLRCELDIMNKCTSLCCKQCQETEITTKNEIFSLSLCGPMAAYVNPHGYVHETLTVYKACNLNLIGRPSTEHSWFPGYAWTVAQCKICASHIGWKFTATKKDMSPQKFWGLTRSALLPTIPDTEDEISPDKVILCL
UniProt Q13422, sequence (whole entry, looked up): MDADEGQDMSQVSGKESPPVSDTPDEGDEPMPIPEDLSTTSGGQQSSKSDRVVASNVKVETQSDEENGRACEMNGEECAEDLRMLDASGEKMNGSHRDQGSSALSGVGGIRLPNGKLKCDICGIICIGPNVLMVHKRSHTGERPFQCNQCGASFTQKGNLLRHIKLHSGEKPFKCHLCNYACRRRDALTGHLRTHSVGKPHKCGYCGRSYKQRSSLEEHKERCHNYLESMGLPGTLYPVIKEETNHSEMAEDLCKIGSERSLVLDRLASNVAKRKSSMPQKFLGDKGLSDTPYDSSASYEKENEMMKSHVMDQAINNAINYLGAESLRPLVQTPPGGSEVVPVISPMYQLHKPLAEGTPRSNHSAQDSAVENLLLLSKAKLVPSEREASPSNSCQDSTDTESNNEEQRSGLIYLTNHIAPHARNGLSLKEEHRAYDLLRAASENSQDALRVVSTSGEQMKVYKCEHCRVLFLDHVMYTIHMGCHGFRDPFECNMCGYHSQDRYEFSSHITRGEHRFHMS
UniProt Q13336, sequence (whole entry, looked up): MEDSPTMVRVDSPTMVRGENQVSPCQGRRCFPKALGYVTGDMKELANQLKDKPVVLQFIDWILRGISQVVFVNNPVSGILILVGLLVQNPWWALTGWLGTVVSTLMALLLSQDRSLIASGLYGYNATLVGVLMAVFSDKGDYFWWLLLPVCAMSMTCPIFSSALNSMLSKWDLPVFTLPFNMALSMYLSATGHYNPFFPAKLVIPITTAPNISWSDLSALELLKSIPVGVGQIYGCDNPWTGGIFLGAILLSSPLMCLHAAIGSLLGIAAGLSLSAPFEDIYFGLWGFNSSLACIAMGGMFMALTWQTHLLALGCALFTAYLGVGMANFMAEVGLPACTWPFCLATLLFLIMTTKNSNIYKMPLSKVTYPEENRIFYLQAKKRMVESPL

NS(=O)(=O)c1nnc(NC(=O)CN2CC3CCC2CC3)s1 — Ki (Enterococcus faecium γ-carbonic anhydrase; CO2 hydration, inhibitor, stopped-flow kinetics): 0.0949 µM
O=C(O)CC1Oc2ccccc2NC1=O (centres unmarked) — Kd (USP33 ZnF-UBD domain): > 1000 µM
Cc1ccccc1-c1ccc([C@H]2[C@H](CO)N3CCCCN(CC4CC4)C[C@@H]23)cc1 — EC50 (IDE; enzyme activity, inhibitor, fluorogenic kinetic; together with: Mca-RPPGFSAFK(Dnp)-OH substrate): 30 µM
Cc1cc(=O)c(-c2ccc(Oc3ccc(C(F)(F)F)cc3)cc2)c(C)n1O — IC50 (Plasmodium yoelii; 17XL; 384-well): 0.213 ± 0.034 µM
Cc1ccccc1C(=O)Nc1nnc(S(N)(=O)=O)s1 — Ki (Enterococcus faecium γ-carbonic anhydrase; CO2 hydration, inhibitor, stopped-flow kinetics): 0.113 µM
Cn1cc(-c2ccc(-c3cncc(Cl)c3N3CCC4(CCNC4=O)CC3)cc2)cn1 — fold change in expression (COLO 205; microarray, item: SDC4; concentration not given, 6 h, gene set Syndecan-4; relative to: untreated cells): 2.9
Cc1cccc(-c2ccc([C@@H]3[C@H]4CN(C(=O)c5ccncc5)CCCCN4[C@H]3CO)cc2)c1 — EC50 (IDE; enzyme activity, inhibitor, fluorogenic kinetic; together with: Mca-RPPGFSAFK(Dnp)-OH substrate): 4.9 µM
O=C(O)CCC1=Nc2cccc3cccc(c23)N1 — Kd (USP33 ZnF-UBD domain): > 1000 µM
CCc1cc2c(N3CCN(c4nncs4)CC3)ncnc2s1 — viability (HBL-1; 1 µM, 120 h): 100%
CCC(C)(NCCc1cccc(C(F)(F)F)c1Cl)c1cccc(NC2=CC(=O)N(C3CCC(=O)NC3=O)C2=O)c1 (centres unmarked) — DC50 (Cereblon/Ikaros; degrader, HiBiT luminescence, item: endogenous HiBiT-tagged protein): 0.06 ± 0.008 µM
Cc1cccc(CC(=O)Nc2nnc(S(N)(=O)=O)s2)c1 — Ki (Enterococcus faecium γ-carbonic anhydrase; CO2 hydration, inhibitor, stopped-flow kinetics): 0.11 µM
Cc1ccccc1-c1ccc([C@H]2[C@@H](CO)N3C(=O)CN(C(=O)c4cccnc4)C[C@H]23)cc1 — EC50 (IDE; enzyme activity, inhibitor, fluorogenic kinetic; together with: Mca-RPPGFSAFK(Dnp)-OH substrate): 1.95 µM
NS(=O)(=O)c1nnc(NC(=O)CN2CCC(F)CC2)s1 — Ki (Enterococcus faecium γ-carbonic anhydrase; CO2 hydration, inhibitor, stopped-flow kinetics): 0.0744 µM
O=C(CCCCCCC(=O)Nc1ccc([C@H]2O[C@@H](CSc3nc(-c4ccccc4)c(-c4ccccc4)o3)C[C@@H](c3ccc(CO)cc3)O2)cc1)NO — viability (HBL-1; 0.1 µM, 120 h): 124%
O=C1CCC(N2Cc3cc(NC(=O)c4cccc(C(F)(F)F)c4)ccc3C2=O)C(=O)N1 (centres unmarked) — DC50 (Cereblon/Ikaros; degrader, live-cell HiBiT kinetic; Jurkat Ikaros-HiBiT LgBiT): > 10 µM
Cc1ccccc1-c1ccc([C@H]2[C@@H](CO)N3CCCCN(S(=O)(=O)Cc4ccccc4)C[C@@H]23)cc1 — EC50 (IDE; enzyme activity, inhibitor, fluorogenic kinetic; together with: Mca-RPPGFSAFK(Dnp)-OH substrate): 44 µM
Nc1nc(CC(=O)O)cs1 — Kd (USP33 ZnF-UBD domain): > 1000 µM
Cc1ccccc1S(=O)(=O)N1C/C=C\CN2[C@H](CO)[C@@H](c3ccc(-c4cccc(Cl)c4C)cc3)[C@@H]2C1 — EC50 (IDE; enzyme activity, inhibitor, fluorescence kinetic; together with: Mca-RPPGFSAFK(Dnp)-OH substrate): 0.035 µM
NC(=O)Nc1ccccc1 — Ki (Urea transporter 1 (Homo sapiens, UniProt Q13336); urea transport inhibition; together with: thiourea): 1000 µM
CCC(C)(NCCc1ccc(Cl)c(Cl)c1)c1cccc(NC2=CC(=O)N(C3CCC(=O)NC3=O)C2=O)c1 (centres unmarked) — DC50 (Cereblon/Ikaros; degrader): 0.07 ± 0.009 µM
Cc1ccccc1-c1ccc([C@H]2[C@@H]3CN(C(=O)C4CCCCC4)C[C@H]2N3)cc1 — EC50 (IDE; enzyme activity, inhibitor, fluorogenic kinetic; together with: Mca-RPPGFSAFK(Dnp)-OH substrate): 1.5 µM
CC1=C(Nc2cccc(C3(NCCc4ccc(C(F)(F)F)c(Cl)c4)CCC3)c2)C(=O)N(C2CCC(=O)NC2=O)C1=O (centres unmarked) — DC50 (Cereblon/Ikaros; degrader, HiBiT luminescence, item: endogenous HiBiT-tagged protein): 26 ± 17 µM
O=C(NC(=O)c1ccccc1O)c1ccccc1O — IC50 (Plasmodium yoelii; 17XL; 384-well): 0.141 ± 0.007 µM

Some of these lines once more:
Cc1cc(=O)c(-c2ccc(Oc3ccc(C(F)(F)F)cc3)cc2)c(C)n1O — IC50 (Plasmodium yoelii; 17XL; 384-well): 0.213 ± 0.034 µM
Cc1ccccc1C(=O)Nc1nnc(S(N)(=O)=O)s1 — Ki (Enterococcus faecium γ-carbonic anhydrase; CO2 hydration, inhibitor, stopped-flow kinetics): 0.113 µM
Cn1cc(-c2ccc(-c3cncc(Cl)c3N3CCC4(CCNC4=O)CC3)cc2)cn1 — fold change in expression (COLO 205; microarray, item: SDC4; concentration not given, 6 h, gene set Syndecan-4; relative to: untreated cells): 2.9
Cc1cccc(-c2ccc([C@@H]3[C@H]4CN(C(=O)c5ccncc5)CCCCN4[C@H]3CO)cc2)c1 — EC50 (IDE; enzyme activity, inhibitor, fluorogenic kinetic; together with: Mca-RPPGFSAFK(Dnp)-OH substrate): 4.9 µM
